Results gathered from unrelated publications.
Compare with care: the assays were run in different laboratories. Several values in a cell are separate wells, animals, samples, runs or records. Numbers after ± are the reported error.
UniProt Q16602, sequence (whole entry, looked up): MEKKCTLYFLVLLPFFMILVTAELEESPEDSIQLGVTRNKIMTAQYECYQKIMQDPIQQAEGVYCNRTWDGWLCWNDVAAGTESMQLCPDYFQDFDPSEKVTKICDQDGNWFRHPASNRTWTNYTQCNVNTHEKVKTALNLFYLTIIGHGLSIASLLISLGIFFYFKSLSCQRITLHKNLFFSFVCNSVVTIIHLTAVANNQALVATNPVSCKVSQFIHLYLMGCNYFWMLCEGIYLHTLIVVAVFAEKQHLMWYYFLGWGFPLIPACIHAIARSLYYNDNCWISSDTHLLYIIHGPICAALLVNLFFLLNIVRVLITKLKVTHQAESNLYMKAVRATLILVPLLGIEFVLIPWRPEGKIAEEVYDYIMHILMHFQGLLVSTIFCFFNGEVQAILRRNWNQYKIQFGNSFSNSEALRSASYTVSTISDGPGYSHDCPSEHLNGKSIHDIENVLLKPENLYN
UniProt Q62351, sequence (whole entry, looked up): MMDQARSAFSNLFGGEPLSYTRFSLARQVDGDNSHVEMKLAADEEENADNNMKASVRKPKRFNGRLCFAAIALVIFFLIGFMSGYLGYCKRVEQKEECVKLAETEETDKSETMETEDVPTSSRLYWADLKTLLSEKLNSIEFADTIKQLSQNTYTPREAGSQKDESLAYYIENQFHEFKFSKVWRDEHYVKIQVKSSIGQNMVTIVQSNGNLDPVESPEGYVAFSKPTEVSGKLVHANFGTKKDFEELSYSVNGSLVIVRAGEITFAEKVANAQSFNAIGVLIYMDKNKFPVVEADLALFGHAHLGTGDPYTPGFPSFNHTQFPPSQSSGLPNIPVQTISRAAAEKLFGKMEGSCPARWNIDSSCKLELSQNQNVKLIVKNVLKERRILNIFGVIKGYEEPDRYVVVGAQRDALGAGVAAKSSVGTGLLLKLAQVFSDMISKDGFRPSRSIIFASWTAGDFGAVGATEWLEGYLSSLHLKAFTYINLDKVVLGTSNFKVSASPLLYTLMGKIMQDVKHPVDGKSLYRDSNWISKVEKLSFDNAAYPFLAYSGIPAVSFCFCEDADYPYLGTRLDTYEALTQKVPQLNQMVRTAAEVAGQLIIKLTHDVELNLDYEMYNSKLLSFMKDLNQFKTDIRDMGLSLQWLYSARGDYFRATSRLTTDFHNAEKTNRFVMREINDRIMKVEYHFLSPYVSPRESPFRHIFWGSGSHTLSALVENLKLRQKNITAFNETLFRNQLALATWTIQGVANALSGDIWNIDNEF
UniProt P41240, sequence (whole entry, looked up): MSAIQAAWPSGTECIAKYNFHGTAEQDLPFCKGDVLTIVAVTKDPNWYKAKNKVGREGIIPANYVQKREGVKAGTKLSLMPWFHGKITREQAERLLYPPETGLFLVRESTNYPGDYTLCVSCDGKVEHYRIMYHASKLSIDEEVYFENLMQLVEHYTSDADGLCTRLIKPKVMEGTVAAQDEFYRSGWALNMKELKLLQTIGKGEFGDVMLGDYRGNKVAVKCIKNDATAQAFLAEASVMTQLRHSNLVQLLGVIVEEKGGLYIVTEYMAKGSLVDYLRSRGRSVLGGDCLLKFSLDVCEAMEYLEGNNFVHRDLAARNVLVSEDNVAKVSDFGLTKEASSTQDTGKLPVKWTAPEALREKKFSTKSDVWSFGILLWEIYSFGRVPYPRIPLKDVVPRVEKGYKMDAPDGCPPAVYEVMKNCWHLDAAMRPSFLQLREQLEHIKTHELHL
UniProt P06241, sequence (whole entry, looked up): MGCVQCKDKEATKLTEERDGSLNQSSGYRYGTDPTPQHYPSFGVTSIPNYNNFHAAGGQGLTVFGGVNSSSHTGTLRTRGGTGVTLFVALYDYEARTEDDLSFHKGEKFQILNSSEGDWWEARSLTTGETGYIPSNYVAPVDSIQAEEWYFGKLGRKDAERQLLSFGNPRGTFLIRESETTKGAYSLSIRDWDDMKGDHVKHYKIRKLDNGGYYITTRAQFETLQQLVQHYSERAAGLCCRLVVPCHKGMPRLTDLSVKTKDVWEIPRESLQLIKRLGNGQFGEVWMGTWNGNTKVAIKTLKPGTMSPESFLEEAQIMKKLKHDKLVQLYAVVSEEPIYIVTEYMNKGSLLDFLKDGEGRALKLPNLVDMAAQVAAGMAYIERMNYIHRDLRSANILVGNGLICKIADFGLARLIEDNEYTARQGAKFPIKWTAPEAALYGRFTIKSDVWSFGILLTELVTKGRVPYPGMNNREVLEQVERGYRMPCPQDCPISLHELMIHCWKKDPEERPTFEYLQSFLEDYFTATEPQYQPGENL
UniProt P32298, sequence (whole entry, looked up): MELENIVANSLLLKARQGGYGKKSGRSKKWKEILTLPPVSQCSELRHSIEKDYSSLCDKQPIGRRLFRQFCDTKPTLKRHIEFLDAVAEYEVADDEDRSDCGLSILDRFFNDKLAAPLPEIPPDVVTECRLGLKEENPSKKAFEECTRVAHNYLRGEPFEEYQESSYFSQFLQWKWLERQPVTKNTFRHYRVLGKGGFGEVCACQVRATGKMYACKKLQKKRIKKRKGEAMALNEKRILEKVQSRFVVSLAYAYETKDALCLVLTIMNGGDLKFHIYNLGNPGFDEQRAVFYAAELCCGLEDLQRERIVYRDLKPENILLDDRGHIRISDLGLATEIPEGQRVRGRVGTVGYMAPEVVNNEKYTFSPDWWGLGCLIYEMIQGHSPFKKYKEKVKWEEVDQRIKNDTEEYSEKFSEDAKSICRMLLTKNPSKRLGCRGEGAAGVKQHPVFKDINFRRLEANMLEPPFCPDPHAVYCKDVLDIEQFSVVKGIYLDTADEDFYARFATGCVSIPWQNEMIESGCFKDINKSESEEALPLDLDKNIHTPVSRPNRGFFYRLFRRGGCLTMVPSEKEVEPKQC
UniProt O42275, sequence (whole entry, looked up): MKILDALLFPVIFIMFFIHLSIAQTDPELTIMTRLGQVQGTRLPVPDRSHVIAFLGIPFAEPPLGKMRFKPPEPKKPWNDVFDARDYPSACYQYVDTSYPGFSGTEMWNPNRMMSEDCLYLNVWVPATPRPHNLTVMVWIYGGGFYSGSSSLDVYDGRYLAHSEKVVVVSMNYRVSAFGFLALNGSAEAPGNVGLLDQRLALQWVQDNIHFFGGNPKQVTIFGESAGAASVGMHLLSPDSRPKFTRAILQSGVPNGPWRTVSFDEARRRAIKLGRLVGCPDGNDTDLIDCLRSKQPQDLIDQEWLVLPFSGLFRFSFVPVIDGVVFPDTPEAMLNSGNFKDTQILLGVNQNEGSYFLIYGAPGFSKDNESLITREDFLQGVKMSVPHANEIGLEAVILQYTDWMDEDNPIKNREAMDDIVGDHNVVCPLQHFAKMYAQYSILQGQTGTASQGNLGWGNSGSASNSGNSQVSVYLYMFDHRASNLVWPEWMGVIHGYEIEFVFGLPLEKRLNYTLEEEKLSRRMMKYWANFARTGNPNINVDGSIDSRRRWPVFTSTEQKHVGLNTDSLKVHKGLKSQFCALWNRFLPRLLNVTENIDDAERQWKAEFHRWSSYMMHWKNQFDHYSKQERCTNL
UniProt Q9NS75, sequence (whole entry, looked up): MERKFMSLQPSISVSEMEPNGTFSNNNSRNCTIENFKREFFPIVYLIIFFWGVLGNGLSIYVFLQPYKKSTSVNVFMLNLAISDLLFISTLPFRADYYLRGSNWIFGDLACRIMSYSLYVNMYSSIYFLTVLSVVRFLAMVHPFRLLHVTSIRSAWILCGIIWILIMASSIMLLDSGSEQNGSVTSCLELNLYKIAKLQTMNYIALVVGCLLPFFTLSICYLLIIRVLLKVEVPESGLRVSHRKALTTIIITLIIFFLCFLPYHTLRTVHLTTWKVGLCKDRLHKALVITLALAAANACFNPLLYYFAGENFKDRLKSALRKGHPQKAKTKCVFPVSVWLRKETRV
UniProt P41231, sequence (whole entry, looked up): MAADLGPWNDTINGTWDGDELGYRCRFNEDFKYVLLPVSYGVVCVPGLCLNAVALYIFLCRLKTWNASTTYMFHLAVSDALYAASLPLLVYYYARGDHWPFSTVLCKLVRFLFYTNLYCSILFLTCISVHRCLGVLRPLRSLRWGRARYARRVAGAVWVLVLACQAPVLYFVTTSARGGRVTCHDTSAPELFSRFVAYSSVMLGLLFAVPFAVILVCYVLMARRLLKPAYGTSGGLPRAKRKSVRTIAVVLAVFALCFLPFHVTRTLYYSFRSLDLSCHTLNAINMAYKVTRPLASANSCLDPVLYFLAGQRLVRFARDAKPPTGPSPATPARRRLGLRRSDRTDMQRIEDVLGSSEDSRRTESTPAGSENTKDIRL
UniProt P09936, sequence (whole entry, looked up): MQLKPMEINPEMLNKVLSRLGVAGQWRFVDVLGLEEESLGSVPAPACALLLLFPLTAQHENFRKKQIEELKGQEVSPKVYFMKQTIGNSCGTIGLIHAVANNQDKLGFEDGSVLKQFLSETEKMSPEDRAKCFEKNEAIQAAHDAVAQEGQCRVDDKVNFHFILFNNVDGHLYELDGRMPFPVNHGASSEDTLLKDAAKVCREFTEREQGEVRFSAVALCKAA

Structure (SMILES)	target	assay	system	setting	scale	quantity	value
COc1cc(Nc2ncc(F)c(Nc3ccc4c(n3)NC(=O)C(C)(C)O4)n2)cc(OC)c1OC	GRK4 (Homo sapiens, UniProt P32298)	KINOMEscan	–	10 µM	–	inhibition	0%
O=C(Nc1cccnn1)N1CCC(=Cc2cccc(Oc3ccc(C(F)(F)F)cn3)c2)CC1	CYSLTR2 (Homo sapiens, UniProt Q9NS75)	radioligand binding	–	10 µM, together with: [3H]LTD4	–	inhibition of binding	0%
O=C1Nc2ccc3ncsc3c2/C1=C/c1cnc[nH]1	TRPM8 (Homo sapiens, UniProt Q7Z2W7)	antagonist	HEK293	5 µM	–	remaining activity	68.6 ± 9.62%
COc1ccc(N2C(=O)N(c3c(C)cccc3Cl)Cc3cnc(Nc4ccc(C5CCN(C)CC5)cc4OC)nc32)nc1	CSK (Homo sapiens, UniProt P41240)	kinase activity	–	0.5 µM	–	inhibition	76%
COc1cc2nccc(Oc3ccc(NC(=O)c4cc5c(n(-c6ccccc6)c4=O)CCCC5=O)nc3)c2cc1OC	FYN (Homo sapiens, UniProt P06241)	cell viability, CellTiter-Glo	Ba/F3 expressing recombinant kinase	–	baseline: FYN IC50 over AXL IC50	selectivity ratio	> 100
N#C[C@@H]1CC(F)(F)CN1C(=O)CNC(=O)c1ccnc2ccc(OCCCN3CCN(C(=O)CN4CCN(CC(=O)[O-])CCN(CC(=O)[O-])CC4)CC3)cc12.[18F-].[Al+3]	Fibroblast activation protein alpha (Rattus norvegicus, UniProt A0A9K3Y732)	PET	rat standard diet control	intravenous, 0.05 MBq/g, 30 min, seventh week	–	myocardial SUVmax	1.06 ± 0.19
O=C(c1ccc(Cl)cc1)N1CCN2C(=O)N(OC(=O)N3CCOc4ccccc43)C(=O)C2C1 (centres unmarked)	Zinc-alpha-2-glycoprotein (AZGP1, Homo sapiens, UniProt P25311)	MS-based ABPP	SW-620 conditioned medium	10 µM	baseline: compound over DMSO, lower = more inhibition	mean protein ratio	1.11
CN1CCN(c2cc(-c3ccncc3)c(-c3ccc4ccccc4c3)nn2)CC1	P2Y purinoceptor 2 (P2RY2, Homo sapiens, UniProt P41231)	antagonist, FLIPR	–	10 µM	–	inhibition	3.1%
CCc1ccc(C(=O)CCl)cc1	UCHL1 (Homo sapiens, UniProt P09936)	covalent, intact protein LC-MS	–	12.5 µM	–	labelling	13.7%
COc1cc(-c2[o+]c3cc(O)cc(O)c3cc2O[C@@H]2O[C@H](CO)[C@@H](O)[C@H](O)[C@H]2O)cc(OC)c1O	Albumin (ALB, Homo sapiens, UniProt P02768)	binding, fluorescence quenching	–	20 °C	–	Gibbs free energy	-5.45 kcal/mol
C[C@H]1CN(c2n[nH]c3nc(N[C@H]4CC[C@H](NS(=O)(=O)CCC(F)(F)F)CC4)ncc23)CCO1	Protein FAM222B (Homo sapiens, UniProt Q8WU58)	competitor, Kinobeads competition	HEK293, K562, placenta extract	0.16 µM	baseline: vehicle	remaining binding	71%
O=C(Nc1cnccc1Cl)N1CCN(Cc2ccc3c(c2)OC(F)(F)O3)CC1	CALCRL (Homo sapiens, UniProt Q16602)	radioligand binding	–	concentration not given	–	inhibition	-4% and 6%
O=c1c2ccccc2oc2cc(OCCCCc3ccccc3)ccc12	ache (Electrophorus electricus, UniProt O42275)	enzyme activity	–	0.73 µM, together with: substrate 1.73 mM	higher = faster reaction	reaction velocity	0.0016 a.u.
COc1cc(/C=C/c2ccc(O)cc2)cc(OC)c1	O-methyltransferase (Sorghum bicolor, UniProt A0A1B6PFV1, W279A)	isothermal titration calorimetry	–	together with: RSV	–	∆G	-7.88 kcal/mol
[2H]c1c([2H])c([C@]2([2H])CCCN2C(=O)C(C)(C)Oc2ccc3cn[nH]c3c2)c([2H])c([2H])c1C([2H])([2H])[2H]	CDK4 (Homo sapiens, UniProt P11802)	KINOMEscan	–	1 µM	baseline: DMSO control	remaining binding	94%
CC[C@@H](C)[C@@H](NC(=O)[C@@H](Cc1ccc(O)cc1)NC(=O)[C@H]1CCCN1C(=O)[C@@H](CCCNC(=N)N)NC(=O)[C@H](N)Cc1c[nH]cn1)C(=O)N[C@H](C)C(=O)N[C@H](Cc1c[nH]cn1)C(=O)N[C@H](CCCNC(=N)N)C(=O)N[C@H](CCCCNC(=O)c1cccc(S(=O)(=O)F)c1)C(=O)N[C@H](Cc1ccc(O)cc1)C(=O)N[C@H](CO)C(=O)N[C@H](Cc1ccccc1)C(N)=O	Transferrin receptor protein 1 (Tfrc, Mus musculus, UniProt Q62351)	flow cytometry	B16	48 h, unit not given	baseline: 0 h	surface expression	0.404 and 0.454
CN(C(=O)n1cnc(-c2ccc[n+]([O-])c2)c1)C1CCCCC1	Faah (Rattus norvegicus, UniProt P97612)	enzyme activity, ABPP	rat, brain	oral, 100 mg/kg/day, 7 days	baseline: vehicle	fold change	-89.5

Some of these lines once more:
Structure (SMILES)	target	assay	system	setting	scale	quantity	value
O=C(c1ccc(Cl)cc1)N1CCN2C(=O)N(OC(=O)N3CCOc4ccccc43)C(=O)C2C1 (centres unmarked)	Zinc-alpha-2-glycoprotein (AZGP1, Homo sapiens, UniProt P25311)	MS-based ABPP	SW-620 conditioned medium	10 µM	baseline: compound over DMSO, lower = more inhibition	mean protein ratio	1.11
CN1CCN(c2cc(-c3ccncc3)c(-c3ccc4ccccc4c3)nn2)CC1	P2Y purinoceptor 2 (P2RY2, Homo sapiens, UniProt P41231)	antagonist, FLIPR	–	10 µM	–	inhibition	3.1%
